{"data": "Assay results pooled from the literature", "note": "Compare with care: the assays were run in different laboratories."}
{"Structure (SMILES)": "O=C(NC[C@H](O)CO)c1ccncc1Nc1ccc(I)cc1F", "target or system": "NLRP3 inflammasome (mouse)", "test system": "mouse BMDM", "conditions": "10 µM", "measurement": "inhibition", "result": "0.774%"}
{"Structure (SMILES)": "Cc1cccc(C)c1N(CC(=O)Nc1ccc(-c2ncon2)cc1)C(=O)C1CCS(=O)(=O)CC1", "target or system": "human alphaherpesvirus 1", "test system": "primary human fibroblasts, K26 GFP", "how to read": "reference: CC50 over IC50", "measurement": "selectivity index", "result": "> 600"}
{"Structure (SMILES)": "Cn1cc(-c2ccc(-c3cncc(Cl)c3N3CCC4(CCNC4=O)CC3)cc2)cn1", "target or system": "COLO 205", "test": "gene expression, microarray, item: PLK1 mRNA", "conditions": "concentration not given, 2 h", "how to read": "reference: untreated cells", "measurement": "log2 fold change", "result": -2.46}
{"Structure (SMILES)": "CCn1c(-c2nonc2N)nc2c(C#CC(C)(C)O)ncc(OC[C@H]3CCCNC3)c21", "target or system": "iCell Cardiomyocytes (hiPSC-derived)", "test": "xCELLigence Cardio impedance", "conditions": "concentration not given, 2 h", "how to read": "reference: control", "measurement": "beat amplitude", "result": "121%"}
{"Structure (SMILES)": "NC(=O)NCCC[C@H](N)C(=O)O", "test": "binding, equilibrium dialysis LC-MS", "conditions": "5 µM, thermostabilized A2AR-BRIL construct", "how to read": "reference: no-protein control, direction not given", "measurement": "z-scored log2 fold change", "result": 1.34}
{"Structure (SMILES)": "CCn1cc(-c2cc(Cn3ccnc3)cc3c2CCN([C@H](c2cc(OC)ccn2)C2CC2)C3=O)c(C(F)(F)F)n1", "target or system": "LUDLU-1", "test": "cell growth, inhibitor", "conditions": "120 h", "measurement": "EC50", "result": "> 30 µM"}
{"Structure (SMILES)": "C=CCn1c(=O)c2cnc(Nc3ccc(N4CCN(C)CC4)cc3)nc2n1-c1cccc(C(C)(C)O)n1", "target or system": "NLRP3 inflammasome (mouse)", "test system": "mouse BMDM", "conditions": "10 µM", "measurement": "inhibition", "result": "-12.2%"}
{"Structure (SMILES)": "O=C(O)c1cc(O)c2cccc(O)c2n1", "test": "binding, equilibrium dialysis LC-MS", "conditions": "5 µM, thermostabilized A2AR-BRIL construct", "how to read": "reference: no-protein control, direction not given", "measurement": "z-scored log2 fold change", "result": 0.632}
{"Structure (SMILES)": "COc1cc(Nc2c(C#N)cnc3cc(OCCCN4CCN(C)CC4)c(OC)cc23)c(Cl)cc1Cl", "target or system": "iCell Cardiomyocytes (hiPSC-derived)", "test": "cellular impedance", "conditions": "concentration not given, 24 h", "how to read": "reference: control", "measurement": "cell index", "result": "112%"}
{"Structure (SMILES)": "O=C(O)c1cc(O)ccc1O", "test": "binding, equilibrium dialysis LC-MS", "conditions": "5 µM, thermostabilized A2AR-BRIL construct", "how to read": "reference: no-protein control, direction not given", "measurement": "z-scored log2 fold change", "result": 0.209}
{"Structure (SMILES)": "Cc1nc(NC(=O)N2CCC[C@H]2C(N)=O)sc1-c1ccnc(C(C)(C)C(F)(F)F)c1", "target or system": "NLRP3 inflammasome (mouse)", "test system": "mouse BMDM", "conditions": "10 µM", "measurement": "inhibition", "result": "-15.5%"}
{"Structure (SMILES)": "CCCCCCc1ccc(Oc2ccccc2C)c(O)c1", "target or system": "Mycobacterium tuberculosis", "test system": "mouse, rapid infection model, spleen", "conditions": "50 mg/kg twice daily, SMEDDS formulation, added: rifampicin 10 mg/kg", "how to read": "reference: rifampicin alone", "measurement": "additional CFU reduction", "result": "1.7 log10 CFU"}
{"Structure (SMILES)": "CN[C@H](CC(C)C)C(=O)N[C@H]1C(=O)N[C@@H](CC(N)=O)C(=O)N[C@H]2C(=O)N[C@H]3C(=O)N[C@H](C(=O)N[C@H](C(=O)O)c4cc(O)cc(O)c4-c4cc3ccc4O)[C@H](O)c3ccc(c(Cl)c3)Oc3cc2cc(c3O[C@@H]2O[C@H](CO)[C@@H](O)[C@H](O)[C@H]2O[C@H]2C[C@](C)(N)[C@H](O)[C@H](C)O2)Oc2ccc(cc2Cl)[C@H]1O", "target or system": "Staphylococcus haemolyticus", "test system": "mouse systemic infection", "conditions": "intravenous", "how to read": "survival", "measurement": "ED50", "result": "9.96 mg/kg"}
{"Structure (SMILES)": "C[S+]([O-])c1ccc(-c2nc(-c3ccncc3)c(-c3ccc(F)cc3)[nH]2)cc1 (stereo not drawn)", "target or system": "iCell Cardiomyocytes (hiPSC-derived)", "test": "xCELLigence Cardio impedance", "conditions": "concentration not given, 2 h", "how to read": "reference: control", "measurement": "beat amplitude", "result": "100%"}
{"Structure (SMILES)": "Cc1ncc(COP(=O)(O)O)c(C=O)c1O", "test": "binding, equilibrium dialysis LC-MS", "conditions": "5 µM, thermostabilized A2AR-BRIL construct", "how to read": "reference: no-protein control, direction not given", "measurement": "z-scored log2 fold change", "result": 1.13}
{"Structure (SMILES)": "CN1CCN(c2ccc3nc(-c4c(N)c5c(F)cccc5[nH]c4=O)[nH]c3c2)CC1", "target or system": "NLRP3 inflammasome (mouse)", "test system": "mouse BMDM", "conditions": "10 µM", "measurement": "inhibition", "result": "60.1%"}
{"Structure (SMILES)": "O=C(O)[C@@H]1CCCCN1", "test": "binding, equilibrium dialysis LC-MS", "conditions": "5 µM, thermostabilized A2AR-BRIL construct", "how to read": "reference: no-protein control, direction not given", "measurement": "z-scored log2 fold change", "result": 0.176}
{"Structure (SMILES)": "OC(CCN1CCCCC1)(c1ccccc1)C1CC2C=CC1C2 (stereo not drawn)", "test": "resting-state EEG", "test system": "healthy elderly humans", "conditions": "oral, 2 mg, eyes open, LS mean", "measurement": "EEG Beta3-power Fz-Cz", "result": "1.8 µV²"}
{"Structure (SMILES)": "Nc1ccn([C@@H]2O[C@H](CO)[C@@H](O)[C@H]2O)c(=O)n1", "test": "binding, equilibrium dialysis LC-MS", "conditions": "5 µM, thermostabilized A2AR-BRIL construct", "how to read": "reference: no-protein control, direction not given", "measurement": "z-scored log2 fold change", "result": 0.0962}
{"Structure (SMILES)": "COC(=O)c1ccc2c(c1)NC(=O)/C2=C(\\Nc1ccc(N(C)C(=O)CN2CCN(C)CC2)cc1)c1ccccc1", "target or system": "NLRP3 inflammasome (mouse)", "test system": "mouse BMDM", "conditions": "10 µM", "measurement": "inhibition", "result": "36.6%"}
{"Structure (SMILES)": "CC(C)(C)c1cc(NC(=O)Nc2ccc(-c3cn4c(n3)sc3cc(OCCN5CCOCC5)ccc34)cc2)no1", "target or system": "iCell Cardiomyocytes (hiPSC-derived)", "test": "xCELLigence Cardio impedance", "conditions": "concentration not given, 2 h", "how to read": "reference: control", "measurement": "beat amplitude", "result": "103%"}
{"note": "Excerpt of the above:"}
{"Structure (SMILES)": "Cc1ncc(COP(=O)(O)O)c(C=O)c1O", "test": "binding, equilibrium dialysis LC-MS", "conditions": "5 µM, thermostabilized A2AR-BRIL construct", "how to read": "reference: no-protein control, direction not given", "measurement": "z-scored log2 fold change", "result": 1.13}
{"Structure (SMILES)": "NC(=O)NCCC[C@H](N)C(=O)O", "test": "binding, equilibrium dialysis LC-MS", "conditions": "5 µM, thermostabilized A2AR-BRIL construct", "how to read": "reference: no-protein control, direction not given", "measurement": "z-scored log2 fold change", "result": 1.34}
